Published values collected from several papers.
Every numbered part comes from another study and shows a few of its results, in no order.

Sample 1
Target: Histone acetyltransferase KAT6A, both winged helices, GST fusion (KAT6A, Homo sapiens, UniProt Q92794, residues 1-181)
Technique: protein binding microarray
Molecule type: double-stranded DNA, one strand shown
Sample: in vitro
Concentration: not given
Notes: 8-mer, flanks averaged, mean of 2 arrays, mostly near background
Relative to: not given
Direction: higher = stronger binding
Construct (chain): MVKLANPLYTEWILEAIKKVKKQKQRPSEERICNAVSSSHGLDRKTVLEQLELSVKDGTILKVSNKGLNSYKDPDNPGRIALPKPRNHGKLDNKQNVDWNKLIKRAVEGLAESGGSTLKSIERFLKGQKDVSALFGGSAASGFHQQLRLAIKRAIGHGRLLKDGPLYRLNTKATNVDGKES
`ATTGCACC` gave an E-score of -0.159.
`GGGTAGTA` gave an E-score of -0.0286.
`CTTCGAAG` has an E-score of -0.153.
With `ATACTTCC` the E-score was -0.0493.
The E-score of `AAGGTGTC` is reported as 0.0236.
`AGTGCTTC` has an E-score of -0.192.

Sample 2
Target: Sal-like protein 4, full length isoform B (SALL4, Homo sapiens, UniProt Q9UJQ4-2, residues 1-616)
Technique: universal PBM
Molecule type: double-stranded DNA, one strand shown
Sample: in vitro
Concentration: not given
Notes: 8-mer, flanks averaged, mean of replicates
Direction: higher = stronger binding
Residues (chain): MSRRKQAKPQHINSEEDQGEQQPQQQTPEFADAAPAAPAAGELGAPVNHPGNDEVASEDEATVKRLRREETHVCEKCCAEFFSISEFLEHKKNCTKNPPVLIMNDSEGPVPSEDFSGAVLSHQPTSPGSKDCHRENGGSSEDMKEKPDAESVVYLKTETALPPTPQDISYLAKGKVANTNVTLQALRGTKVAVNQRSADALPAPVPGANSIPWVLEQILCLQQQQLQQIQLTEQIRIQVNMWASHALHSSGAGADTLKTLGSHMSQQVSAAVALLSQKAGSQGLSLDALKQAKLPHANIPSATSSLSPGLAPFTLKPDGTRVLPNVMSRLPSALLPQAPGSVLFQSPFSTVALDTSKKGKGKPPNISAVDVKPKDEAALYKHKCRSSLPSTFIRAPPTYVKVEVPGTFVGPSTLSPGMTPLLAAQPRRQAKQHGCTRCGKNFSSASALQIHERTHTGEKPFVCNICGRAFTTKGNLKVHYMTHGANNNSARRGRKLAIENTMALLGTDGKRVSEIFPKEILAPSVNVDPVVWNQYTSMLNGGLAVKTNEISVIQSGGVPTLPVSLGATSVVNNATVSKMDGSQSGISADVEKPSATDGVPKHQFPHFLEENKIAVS
`CTCGGTCA` has an E-score of -0.0929.
With `GACCAAAC` the E-score was -0.14.
For `AACTATCC`, the E-score was -0.0646.
With `CGAATGCA` the E-score was 0.135.
With `GGTTATCA` the E-score was 0.124.
For `CACATGAC`, the E-score was -0.0103.
The E-score of `ACTCTCTG` is reported as -0.0199.
For `CCCATCAG`, the E-score was -0.295.

Sample 3
Target: Interferon regulatory factor 7, full length, phosphomimetic (IRF7, Homo sapiens, UniProt Q92985, residues 1-503, S471D/S472D/S475D/S476D/S477D/S483D/S484D/S487D)
UniProt Q92985, sequence (whole entry, unmodified, looked up): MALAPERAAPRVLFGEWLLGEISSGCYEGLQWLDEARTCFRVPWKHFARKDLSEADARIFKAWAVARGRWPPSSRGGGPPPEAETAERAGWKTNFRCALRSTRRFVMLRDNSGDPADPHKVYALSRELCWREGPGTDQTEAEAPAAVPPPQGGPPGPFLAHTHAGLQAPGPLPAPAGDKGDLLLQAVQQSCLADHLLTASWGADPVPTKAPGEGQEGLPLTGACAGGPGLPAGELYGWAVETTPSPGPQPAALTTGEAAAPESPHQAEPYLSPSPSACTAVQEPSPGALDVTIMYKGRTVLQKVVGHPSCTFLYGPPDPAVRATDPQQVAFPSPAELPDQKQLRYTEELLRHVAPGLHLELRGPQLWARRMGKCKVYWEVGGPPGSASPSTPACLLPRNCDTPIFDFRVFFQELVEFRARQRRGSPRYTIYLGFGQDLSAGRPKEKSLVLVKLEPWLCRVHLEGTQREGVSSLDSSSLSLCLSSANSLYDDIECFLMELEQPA
Technique: protein-binding microarray
Molecule type: double-stranded DNA, one strand shown
Sample: in vitro
Concentration: 2200 nM top
Notes: 60-bp whole probe
Together with: salmon DNA 0.4 mg/ml
Relative to: random background probes
Direction: higher = stronger binding
Shared flanks, not repeated: GCCTAGCAC … GTCTTGATTCGCTTGACGCTGCTG
For `GACGATTCCAGTTTCGAAACGTGCTAG`, “fitted relative affinity” read 4.12 z-score.
`TTAGGATTCGGGTATCGGTTAGTGCTA` — result for “fitted relative affinity”: 1.31 z-score.
`TTAGGTTTCCTTATCCTGTAGTGCTAG`: “fitted relative affinity” 2.32 z-score.
`TCATGTGTTACTTTCTAACTGTGCTAG`: “fitted relative affinity” 2.43 z-score.
`TTAGAACTGAGACTGGGTTAGTGCTAG` — result for “fitted relative affinity”: -0.608 z-score.
`TTAGGTCTCCTTCTCCCTTAGTGCTAG` — result for “fitted relative affinity”: 1.1 z-score.
`CTCCCCCTCCCCCTCAGATCGTGCTAG`: “fitted relative affinity” -0.0654 z-score.
`TCATGTACATCTCTCTTACTGTGCTAG` — result for “fitted relative affinity”: 1.82 z-score.

Mixed results
For `PhoQ, residues 284 288 289 292 302 303 HSSMNL`, the fold induction was 8.9 (PhoP, residues 12 14 15 18 19 NHFIF (Escherichia coli, UniProt P23836); Sort-seq, refers to: YFP reporter; E. coli; PhoQ-PhoP variant library, together with: 10 µM Mg2+; relative to: high Mg2+ state, higher = stronger signaling).

For quick reference, copied from above (sample 3):
For `GACGATTCCAGTTTCGAAACGTGCTAG`, “fitted relative affinity” read 4.12 z-score.
`TTAGGATTCGGGTATCGGTTAGTGCTA` — result for “fitted relative affinity”: 1.31 z-score.
`TTAGGTTTCCTTATCCTGTAGTGCTAG`: “fitted relative affinity” 2.32 z-score.
`TCATGTGTTACTTTCTAACTGTGCTAG`: “fitted relative affinity” 2.43 z-score.
